{"data": "Measured values collected from several papers", "cell line": "HEK293", "note": "Protocols differ between the studies behind these lines. ± gives the spread as reported."}
{"SMILES": "O=C([O-])CN1CCN(CC(=O)[O-])CCN(C(CCC(=O)NC(Cc2c[nH]c3ccc(O)cc23)C(=O)NCCc2c[nH]c3ccc(O)cc23)C(=O)O)CCN(CC(=O)[O-])CC1.[Gd+3] (stereo not shown)", "test": "MTT", "setting": "up to 5 mM, 16 h, 37 °C", "endpoint": "cytotoxicity", "result": "not toxic"}
{"SMILES": "Cc1[nH][n+]([Pt-2]([Cl])([n+]2[nH]c(C)c(CSCc3ccccc3)c2C)[n+]2[nH]c(C)c(CSCc3ccccc3)c2C)c(C)c1CSCc1ccccc1.Cl", "test": "cytotoxicity, 7-AAD flow cytometry", "setting": "24 h", "endpoint": "IC50", "result": "0.46 ± 0.01 µM"}
{"SMILES": "CC(C)Cc1ccc(C(C)C(=O)N/N=C/c2ccc(OCC(=O)N/N=C/c3c(O)ccc4ccccc34)cc2)cc1 (stereo not shown)", "test": "MTT", "setting": "150 µM, 48 h", "endpoint": "viability", "result": "25.5%"}
{"SMILES": "CC(C)(C)OC(=O)N[C@@H](Cc1ccccc1)C(=O)N[C@@H](Cc1ccccc1)C(=O)NCCNC(=O)[C@H](Cc1ccccc1)NC(=O)[C@H](Cc1ccccc1)NC(=O)OC(C)(C)C", "test": "MTT", "setting": "24 h, 37 °C, self-assembled structures", "endpoint": "highest non-toxic concentration", "result": "≤ 75 µM"}
{"SMILES": "CC(C)Cc1ccc(C(C)C(=O)N/N=C/c2ccc(OCC(=O)N/N=C/c3ccc([N+](=O)[O-])cc3)cc2)cc1 (stereo not shown)", "test": "MTT", "setting": "40 µM, 48 h", "endpoint": "viability", "result": "48.5%"}
{"SMILES": "C[C@@H](Nc1c(-c2c(F)cc(OCCCO)cc2F)c(Cl)nc2ncnn12)C(C)(C)C", "test": "cell growth or viability, ATP luminescence", "setting": "48 h", "endpoint": "CC50", "result": "0.0181 µM"}
{"SMILES": "O=C1CCc2ccc(NS(=O)(=O)c3cccc(Oc4ccccc4)c3)cc2N1", "setting": "up to 1 µM", "endpoint": "cytotoxicity", "result": "not toxic"}
{"SMILES": "C[C@H](Nc1c(-c2c(F)cc(OCCCN)cc2F)c(Cl)nc2ncnn12)C(F)(F)F", "test": "cell growth or viability, ATP luminescence", "setting": "48 h", "endpoint": "CC50", "result": "0.029 µM"}
{"SMILES": "COc1cccc(/C=N/NC(=O)COc2ccc(/C=N/NC(=O)C(C)c3ccc(CC(C)C)cc3)cc2)c1O (stereo not shown)", "test": "MTT", "setting": "10 µM, 48 h", "endpoint": "viability", "result": "64.1%"}
{"SMILES": "CC(C)[C@@H](C)Nc1c(-c2c(F)cc(OCCCN(C)C)cc2F)c(Cl)nc2ncnn12", "test": "cell growth or viability, ATP luminescence", "setting": "48 h", "endpoint": "CC50", "result": "0.0152 µM"}
{"SMILES": "COc1ccc(C(=O)/C=C(\\O)C(F)(F)C(F)(F)F)cn1", "test": "cell viability", "setting": "24 h, 10% FBS", "endpoint": "EC50", "result": "~10 µM"}
{"SMILES": "NCC1OC(OC2C(N)CC(N)C(OC3OC(CO)C(O)C(N)C3O)C2OCCCCn2cc(CNc3nc(NCc4cn(CCCCOC5C(OC6OC(CN)C(O)CC6N)C(N)CC(N)C5OC5OC(CO)C(O)C(N)C5O)nn4)nc(NCc4cn(CCCCOC5C(OC6OC(CN)C(O)CC6N)C(N)CC(N)C5OC5OC(CO)C(O)C(N)C5O)nn4)n3)nn2)C(N)CC1O (stereo not shown)", "test": "PrestoBlue", "setting": "2 µM, 48 h", "scale": "reference: untreated", "endpoint": "viability", "result": "90%"}
{"SMILES": "CC(C)Cc1ccc(C(C)C(=O)N/N=C/c2ccc(OCC(=O)N/N=C/c3cccc(O)c3)cc2)cc1 (stereo not shown)", "test": "MTT", "setting": "10 µM, 48 h", "endpoint": "viability", "result": "58.6%"}
